Measurements gathered from unrelated publications.
Every numbered part comes from another study and shows a few of its results, in no order.

Sample 1
Target: RNA binding protein fox-1 homolog 2, RRM domain, GST-SBP tag (RBFOX2, Homo sapiens, UniProt O43251-10, residues 100-194)
Method: RNA Bind-n-Seq
Form: RNA
Sample: in vitro
Tested at: 365 nM
Notes: natural RNA segment, single round, ends assumed
Reference: no-protein control
Direction: higher = stronger binding
Constant ends, left off below: GGGAGUUCUACAGUCCGACGAUC … UGGAAUUCUCGGGUGCCAA
Construct (chain): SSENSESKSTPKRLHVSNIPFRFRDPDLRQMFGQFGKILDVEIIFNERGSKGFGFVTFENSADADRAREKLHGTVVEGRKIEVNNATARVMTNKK
| Sequence | RBNS enrichment (R) |
| --- | --- |
| CAAGUUCAAGGUUCACUCCCUAUAUGUGAUUAUAGGAAUUGUUUGUGGAAAUGGAUUAACAUACCCGUCUAUGCCUAAAAGAUAAUAAAACUGAAAUAUGUCUUCACAGG | 0.481 |
| GACUUCAGAAUGUUGUAGGCCUCAUUAGAGCUUGUUCUCCAAAAACCUGCUUGAAAAAGGCAACGUGUUCUUCACAGUGCUCUCCUGUAAGGACAACGCGGCUCAGUCAG | 0.275 |
| GCAUGUGACUGUGAUGCUUUCCAGUCACAUUCAUCACGCACUCAGACCUGUGGCCUGGUGGGACCAGGGCUUCAGGAGCCACAGGAUGGUACAAGCCUCGACAGACACGU | 0.685 |
| UGAGGGUUUUAGACAAUCUCUAGGAAAGGGAUACAAAACAGAUCCGAUGGAAGAAACCUACUUCCCUAUCCUGCCUAUCCUGCCCCUCAACCUCUUCAUUCCUAAUUCCU | 0.488 |
| AUGCUAAACUAAGUCAACAGUGUCUCAGAACUGAAUAACUGCAGUGACUUGAUGCUCUAAAUCAUUGUAGGAUUUACCGCUAGAUGGUUUUGAACCCUUGAACCUGUGAU | 0.291 |
| CUCAGUUCAUGAGAACCCAUUUCCCAGAGGUUCGUUUUGAGCCAAUAGCCUAUUUUGAACCAUUUGAACUGUAGAAAAAUGGCAAAUAUAUACUUACAUGUAUGUUCUUA | 0.396 |
| CCUUUUCCACACUCCUCCUCCGACAGCAGCUCCCUGGGCAGUGGCCUGGUCUCACCGUGUGCAGCCUUGUGGUUUAUGCUUAAAUGUACAUUUUCCUGCUGGUAAAAGGA | 0.603 |
| UGGCAUGUCUUUCUCCCCUGACCCCAAUCUAUUUUAAUAAAGCAGAGUAGUCAUAGUGUUGAAAGAACUGUACUGUUAUCCCGAGUCCCUUCCAAACAAAAAAGGCAAAG | 0.62 |
| AAUCACUAGAUUAGAAAACACGCAGUAUGAUGCGGCCAACGGCAUGGACGACGAAGAAGACUUCAACAAUUCACCUGCCCUGGGGAACAACAGCCCGUGGAACAGUAAAC | 0.328 |
| CUCACCUCCCUGUUCCAGGCUGAGAACUCAAAUGGUUACCCUGCUUCUUCCUACAAUGCUGUGUGAUAUGGGUGAACCCAGCCCCUGACCUUCCUCUAUCCCCUGCCCAU | 0.763 |
| UUGCAUCUGUGAGUCCCUCUGGGCGGCUCGUGUACUGAUCGGAUCUGUGAGUCCCUCUGGGCGGCUCGUGUACUGAUCGGAUCGGCACCAUGACACUUCCCCUAGACUGU | 0.459 |
| GAUUUUUGAAUGCACGUGCGCAGGAAGGGCUCCUCUUAGAGAAGCAGUCAAACUGUGAAGCACUAAGCUGACCCUGCUUCAAGCAAUUUUGUUUUUACAACUGUUCCUUU | 2.2 |

Sample 2
Target: Ras GTPase-activating protein-binding protein 1, full length (G3BP1, Homo sapiens, UniProt Q13283)
Chain of UniProt Q13283 (whole entry, looked up): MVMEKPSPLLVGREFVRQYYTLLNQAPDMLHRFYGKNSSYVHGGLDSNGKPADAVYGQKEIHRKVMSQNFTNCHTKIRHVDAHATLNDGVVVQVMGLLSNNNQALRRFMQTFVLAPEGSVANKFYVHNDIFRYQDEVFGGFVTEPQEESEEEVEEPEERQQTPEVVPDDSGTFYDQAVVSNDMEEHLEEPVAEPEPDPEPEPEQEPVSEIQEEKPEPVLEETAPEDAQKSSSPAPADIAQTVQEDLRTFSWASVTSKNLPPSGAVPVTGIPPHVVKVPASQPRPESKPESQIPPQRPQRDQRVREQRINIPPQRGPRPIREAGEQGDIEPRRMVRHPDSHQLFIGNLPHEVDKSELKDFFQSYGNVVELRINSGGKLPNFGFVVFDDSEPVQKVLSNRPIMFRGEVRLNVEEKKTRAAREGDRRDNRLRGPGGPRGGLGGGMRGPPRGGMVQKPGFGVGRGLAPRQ
Method: RNA Bind-n-Seq
Form: RNA
Sample: in vitro
Tested at: 200 nM
Notes: whole 134-nt RNA, ends assumed
Added: 150 mM KCl
Reference: input library
Direction: higher = stronger binding
Constant ends, left off below: GGGAGUUCUACAGUCCGACGAUC … UGGAAUUCUCGGGUGUCAAGG
| Sequence | log2 enrichment |
| --- | --- |
| CCUCAAGUCCUGUGCUACACAUCGUAUGUACCGAAUCGGGCCGGGCCGGCCGGAAAGUAUUAUGUUACGCCGUUCGGAUCUGCACUUCCA | -0.246 |
| GCAGGAAGUAAAAACAAAUGGAAAUGCUUCGGAUAGUGGCAGGGGUGGGGGUUGCUAAGGAAAGGGUGGGCUGGGAGUGGGUAAAGAGUU | 0.821 |
| UGGGAGGUGGAUUUUGUUUAUUUUUUUAGCUCAUUUCCAGGGGUGGGAAUUUUUUUGUAAUAUGUGUCAUGAAUAAAGUUGUUUUUGAAA | 0.271 |
| CCUCAAGUCCUGUGCUACACAUCGUAUGUACCGAAUCGGAAAGGAAAGGUGGAAAGUAUUAUGUUACGCCGUUCGGAUCUGCACUUCCAG | -0.207 |
| ACCAUGCAGGUGGGCAUCUUUGGGAAGUGGGGCAAGGGGGGGAUAGGGAAAGGGGUAACACUUUGGGAACAGGUGGUCCCAGGUCGUUUC | 1.12 |
| ACCAUGCAGGUGGGCAUCUUUGGGAAGUGGGGCAACGGGGGGAUAGGGAGGGGGGUAACACUUUGGGAACAGGUGGUCCCAGGUCGUUUC | 1 |
| CACAGACAACACGCACCCACACAGACACAGAGGGAAGGGGUUGGAAAGGGGACAGGGUGCACAGCAGGGCGGGGUAGGACCCCAGCCCCU | 1.74 |
| UGGCCCUGGUGGCAUGCGGGGAGGAAGAGGUGGCCUCAUGGAUCGUGGUGGUCCCGGUGGAAUGUUCAGAGGUGGCCUUGGUGGAGACAG | 0.271 |
| AGUCCUGUGCUACACAUCGUAUGUACCGAAUCGGGGUGGGGAGGGGAAAAAAAGGGGAAAGUAUUAUGUUACGCCGUUCGGAUCUGCACU | 0.431 |
| UCCUGUGCUACACAUCGUAUGUACCGAAUCGGGGUUUGGGGAAAGGGGAAAAAAAGGGGAAAGUAUUAUGUUACGCCGUUCGGAUCUGCA | 0.585 |
| UGCAUCUGCACUGGAGAAAUGGAAGACAGCAAUCCGGGAAGCUCAGACUUUCUCCAGGAUGCACGUGCUGCUUGGGAUGCUUGAUGCCUG | -0.368 |
| UCAAGUCCUGUGCUACACAUCGUAUGUACCGAAUCGGUUUUUUUGGUUUGGAGGAAAGUAUUAUGUUACGCCGUUCGGAUCUGCACUUCC | -0.998 |
| UCCUGUGCUACACAUCGUAUGUACCGAAUCGGGUUUUUUGGUUUUUUGGGGUUUUUUGGGAAAGUAUUAUGUUACGCCGUUCGGAUCUGC | -0.373 |
| CUCAAGUCCUGUGCUACACAUCGUAUGUACCGAAUCGGUUUUUUUGGAGGAGGAAAGUAUUAUGUUACGCCGUUCGGAUCUGCACUUCCA | -0.409 |

Sample 3
Target: Histone acetyltransferase KAT6A, both winged helices, GST fusion (KAT6A, Homo sapiens, UniProt Q92794, residues 1-181)
Method: protein binding microarray
Form: double-stranded DNA, one strand shown
Sample: in vitro
Tested at: not given
Notes: 8-mer, flanks averaged, mean of 2 arrays, mostly near background
Reference: not given
Direction: higher = stronger binding
Construct (chain): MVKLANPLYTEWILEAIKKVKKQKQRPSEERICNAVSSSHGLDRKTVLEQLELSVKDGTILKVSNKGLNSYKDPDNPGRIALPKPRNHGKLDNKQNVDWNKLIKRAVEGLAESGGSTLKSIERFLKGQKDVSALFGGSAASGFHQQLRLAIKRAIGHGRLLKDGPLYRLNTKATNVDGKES
| Sequence | E-score |
| --- | --- |
| AATTCAGG | -0.111 |
| CCGGAGAG | 0.0634 |
| CAGTTTTA | -0.0835 |
| AAGTTGGA | -0.165 |
| AATCTTGT | -0.106 |
| GCGGGTCC | 0.245 |
| TCGATAGA | -0.132 |
| ATTGGCGC | 0.187 |
| CCGTTGTA | 0.17 |
| CGTCATTA | -0.00789 |
| CGCGGGGA | 0.32 |
| ATCACAAA | -0.167 |
| ATAAGTAA | -0.0254 |
| CGCAGAGC | 0.179 |
| TGGCGAAA | -0.0485 |
| AACCTATT | -0.0932 |
| CACCCTTC | -0.258 |
| CCCACGCA | 0.0198 |
| CCCTGGAC | -0.127 |
| CAATTACG | 0.0907 |
| CGTTCTCC | -0.0194 |
| ACAGGGCC | -0.00198 |
| ATTATACC | 0.0703 |
| AATAGGCG | 0.111 |

Sample 4
Target: Sal-like protein 4, full length isoform B (SALL4, Homo sapiens, UniProt Q9UJQ4-2, residues 1-616)
Method: universal PBM
Form: double-stranded DNA, one strand shown
Sample: in vitro
Tested at: not given
Notes: 8-mer, flanks averaged, mean of replicates
Direction: higher = stronger binding
| Sequence | E-score |
| --- | --- |
| GGCATTGA | 0.00795 |
| ATGATCAT | 0.192 |
| GCGACTCC | -0.252 |
| CAAAATCA | 0.136 |
| CCGCAGAC | -0.244 |
| CCCTTATC | -0.0271 |
| ACGCACCG | -0.202 |
| ACCGCAGA | -0.166 |
| GCCAATGA | -0.0805 |
| CTCTTAAA | 0.225 |
| AGTGACTC | -0.15 |
| CCCCCTAC | -0.257 |
| CTCCCGAG | -0.358 |
| ACATTCAA | 0.152 |
| CTCGGGAA | -0.228 |
| GTCTATTA | 0.21 |
| CGCCAAGA | -0.19 |
| CGCTTATC | -0.0377 |
| ATTTTGGA | 0.265 |
| AGAGCCAA | -0.017 |
| GCAGCGGC | -0.346 |
| AAAAGATC | 0.0409 |
| AGTTTAAC | 0.0545 |
| GCAGTCCA | -0.0884 |
| TAGCGACA | 0.15 |

Sample 5
Target: Centromere-binding protein 1, full length, His-tagged (CBF1, Saccharomyces cerevisiae, UniProt P17106, residues 1-351)
Chain of UniProt P17106 (whole entry, looked up): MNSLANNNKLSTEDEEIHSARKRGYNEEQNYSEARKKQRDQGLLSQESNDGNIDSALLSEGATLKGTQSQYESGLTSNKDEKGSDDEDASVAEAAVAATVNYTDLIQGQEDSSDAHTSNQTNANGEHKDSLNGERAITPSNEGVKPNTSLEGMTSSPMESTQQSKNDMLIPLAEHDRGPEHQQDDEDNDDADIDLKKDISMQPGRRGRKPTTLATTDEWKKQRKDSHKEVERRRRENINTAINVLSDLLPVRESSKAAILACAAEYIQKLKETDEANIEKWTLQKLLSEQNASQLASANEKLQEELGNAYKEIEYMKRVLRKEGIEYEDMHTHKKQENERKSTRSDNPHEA
Method: competition protein-binding microarray
Form: double-stranded DNA, one strand shown
Sample: in vitro
Tested at: 2 µM
Notes: whole 60-bp probe, lowest competitor level
Added: Pho4 competitor, 0.05 µM
Direction: higher = stronger binding
Constant ends, left off below: … GTCTTGATTCGCTTGACGCTGCTG
| Sequence | fluorescence intensity |
| --- | --- |
| AAATTACTAAGTTGCAGAGTGGGTGACGCCGTATGA | 61.6 a.u. |
| CGCCCAAGGGACAATCACATGCAGAGAAGTTTACGA | 269 a.u. |
| GGTGCCTTATTTCCGCACGTTTTTCAACATACGGCT | 186 a.u. |
| CGTCCTAGTGATTGCAACGTGGGTGCCATGAGGAAG | 113 a.u. |
| AAAGCGGTAATTTTTCACGTGGGGTCAAATATCTAT | 1010 a.u. |
| CCGAATGATAGCGTCAGCGTGCAAACTGTGAACGCA | 94 a.u. |
| TCTTTGTCTGCTCGAGACGTGGGTAGTTAGCAAGTC | 73.2 a.u. |
| CTTTCATCATATTTTCATGTGTCAGAAATAACACCG | 117 a.u. |
| TGTGGCTGCGTTCGTCACGGGTCCACCTCAGGCAGA | 253 a.u. |
| TTGAACAACCATCCCAACGTGAAGAAGCCAAGAAGG | 69.9 a.u. |
| CCCAAACTCTCAAAGCACGATCTAGAGAACCAGCAG | 70.7 a.u. |
| CTAACGAAGGTTTGTCACGTGGGTGACAAGCCAAGT | 4620 a.u. |
| CATACCCAACCTTGACTTGTGGGTGAAGATATTTGT | 74.6 a.u. |
| GGATCTTTGAAAGCAGCCGTGCCGATATACACAGTA | 64.3 a.u. |
| CTAACGAAGGTTTGACACGTGGGTGACAAGCCAAGT | 936 a.u. |
| TTAAGCGACCTCCTGCCCGTGAGAGAATCAAGTAAG | 75.1 a.u. |
| TTACAGGTCGTCTTCCACGTGGTGAGTATCAAAGTA | 773 a.u. |
| CTTTCCCGATCTTGAAGCGTGGGTGTAGCACATTTG | 70.5 a.u. |
| GCACAATTTTATGACCGCGTGTTTTCGAATTTTGAC | 179 a.u. |
| TTTGGAAATGCTCACCACGGGAATATGCAAAAAAAA | 111 a.u. |
| TAACAGCAATTGCACCACATGCAAGTCTCATATGCA | 102 a.u. |
| CAGAAGCCGCGATTTCACATGCCGGCCATTATGGCA | 60.5 a.u. |
| CCTATAACAGCAGTTGTCGTGATGGTTATAGATAAA | 89 a.u. |
| CGGGGTTAAGTTTTTCACGTGGTATGCTTGCAGCAG | 881 a.u. |
| ATGGTTCTAGCGAGTCACGTGCAAATTTTTAAAAAT | 11900 a.u. |

For quick reference, copied from above (sample 3):
| Sequence | E-score |
| --- | --- |
| ATTGGCGC | 0.187 |
| CCGTTGTA | 0.17 |
| CGTCATTA | -0.00789 |
| CGCGGGGA | 0.32 |
| ATCACAAA | -0.167 |
| ATAAGTAA | -0.0254 |
| CGCAGAGC | 0.179 |
| TGGCGAAA | -0.0485 |
| AACCTATT | -0.0932 |
| CACCCTTC | -0.258 |
